Results gathered from unrelated publications.
Every numbered part comes from another study and shows a few of its results, in no order. Substitutions count along the parent as printed.

Block 1 — effect on: binding; technique: phage display NGS; form: peptide; tested at: concentration not given; notes: panning round 2; baseline: input library
Target: UDP-N-acetylglucosamine--peptide N-acetylglucosaminyltransferase 110 kDa subunit (OGT, Homo sapiens, UniProt O15294)
Chain of UniProt O15294 (whole entry, looked up): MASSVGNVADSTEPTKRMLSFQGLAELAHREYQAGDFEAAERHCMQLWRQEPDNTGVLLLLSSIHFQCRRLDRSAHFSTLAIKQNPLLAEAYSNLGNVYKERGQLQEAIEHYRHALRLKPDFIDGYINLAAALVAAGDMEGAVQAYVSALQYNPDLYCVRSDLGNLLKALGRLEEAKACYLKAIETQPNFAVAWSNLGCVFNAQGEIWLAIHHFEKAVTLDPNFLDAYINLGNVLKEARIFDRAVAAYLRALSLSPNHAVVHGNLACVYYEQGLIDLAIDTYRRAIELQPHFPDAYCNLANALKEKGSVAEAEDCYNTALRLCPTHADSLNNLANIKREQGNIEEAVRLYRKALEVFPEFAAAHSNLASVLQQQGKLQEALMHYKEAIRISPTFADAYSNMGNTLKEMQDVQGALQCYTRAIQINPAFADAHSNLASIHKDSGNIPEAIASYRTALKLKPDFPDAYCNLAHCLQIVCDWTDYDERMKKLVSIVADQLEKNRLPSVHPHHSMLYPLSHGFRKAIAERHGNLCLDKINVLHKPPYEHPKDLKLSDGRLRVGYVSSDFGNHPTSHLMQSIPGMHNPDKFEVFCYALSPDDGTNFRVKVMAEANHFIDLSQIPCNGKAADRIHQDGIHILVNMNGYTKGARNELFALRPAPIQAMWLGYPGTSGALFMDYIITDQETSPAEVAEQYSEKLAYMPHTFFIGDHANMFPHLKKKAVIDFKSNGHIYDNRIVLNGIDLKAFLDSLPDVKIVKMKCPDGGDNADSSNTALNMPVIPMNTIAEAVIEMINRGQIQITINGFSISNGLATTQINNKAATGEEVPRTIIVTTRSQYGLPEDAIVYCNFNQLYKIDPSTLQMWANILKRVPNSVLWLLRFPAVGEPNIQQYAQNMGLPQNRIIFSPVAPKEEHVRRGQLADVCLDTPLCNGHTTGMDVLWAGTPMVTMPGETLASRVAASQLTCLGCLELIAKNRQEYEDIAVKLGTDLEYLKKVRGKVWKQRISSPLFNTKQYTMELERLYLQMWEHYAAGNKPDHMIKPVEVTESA
Sequence	enrichment fold change
DYAQFMPKYLIKQYE	7.21
SYRPMYQIVQPIKQY	3.55
WFPHQAHRADIISA	2.71
HVPEGHHYLGHVHFL	4.46
TKFAPQYILEYSKVY	5.79

Block 2 — target: CCNF, cyclin fold, Cln2 fusion (human); technique: yeast growth competition, sequencing; matrix: yeast; notes: strong parent motif; baseline: not given; reading: higher = stronger binding; parent: viral docking peptide; KGVKRKLFAEDSS
Variant	normalised enrichment score
A9W	8.36
K4M	7.27
G2Q	8.24
R5W	1.01
G2T	8.12
S12F	8.01
S12K	7.9
F8E	0.91
G2E	7.66
K4H	7.44
K1A	7.84
A9Y	8.24
R5K	5.05

Block 3 — technique: RNA Bind-n-Seq; form: RNA; matrix: in vitro; tested at: 1 µM; notes: whole 134-nt RNA, ends assumed; with: 150 mM KCl; baseline: input library; reading: higher = stronger binding
Target: Ras GTPase-activating protein-binding protein 1, C-terminal RGG region (G3BP1, Homo sapiens, UniProt Q13283)
Chain of UniProt Q13283 (whole entry, looked up): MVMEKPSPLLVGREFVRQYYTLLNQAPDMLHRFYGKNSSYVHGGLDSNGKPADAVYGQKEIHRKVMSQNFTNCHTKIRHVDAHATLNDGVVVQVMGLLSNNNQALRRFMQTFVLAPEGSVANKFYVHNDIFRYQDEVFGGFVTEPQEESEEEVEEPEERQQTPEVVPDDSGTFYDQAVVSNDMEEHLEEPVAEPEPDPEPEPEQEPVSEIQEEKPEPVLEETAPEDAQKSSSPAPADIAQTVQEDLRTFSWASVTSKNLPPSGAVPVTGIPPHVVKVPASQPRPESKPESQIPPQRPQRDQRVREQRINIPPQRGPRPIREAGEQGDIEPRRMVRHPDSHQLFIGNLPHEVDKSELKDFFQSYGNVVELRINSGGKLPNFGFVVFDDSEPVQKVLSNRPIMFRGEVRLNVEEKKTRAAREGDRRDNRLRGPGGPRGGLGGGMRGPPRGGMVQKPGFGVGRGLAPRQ
All sequences stand within: GGGAGUUCUACAGUCCGACGAUC … UGGAAUUCUCGGGUGUCAAGG
Strand	log2 enrichment
AGUCCUGUGCUACACAUCGUAUGUACCGAAUCGGUUUUUUUGGAAAAAGGUUUUUGGAAAGUAUUAUGUUACGCCGUUCGGAUCUGCACU	-2.42
AAGUCCUGUGCUACACAUCGUAUGUACCGAAUCGGCCCCCGGCCCCCGGCCCCCGGAAAGUAUUAUGUUACGCCGUUCGGAUCUGCACUU	-1.75
GCAGGAAGUAAAAACAAAUGGAAAUGCUUCGGAUAGUGGCAGGGGUGGGGGUUGCUAAGGAAAGGGUCGGAUGGGAGUGGGUAAAGAGUU	1.68
AAGUCCUGUGCUACACAUCGUAUGUACCGAAUCGGAAAAAGGUUUUUGGUUUUUGGAAAGUAUUAUGUUACGCCGUUCGGAUCUGCACUU	-2.17
GUCCUGUGCUACACAUCGUAUGUACCGAAUCGGGAAAAAGGGUUUGGGAAAAAAAGGGAAAGUAUUAUGUUACGCCGUUCGGAUCUGCAC	-0.938
CAAGUCCUGUGCUACACAUCGUAUGUACCGAAUCGGGUUUUUGGGAAAGGGAGGGAAAGUAUUAUGUUACGCCGUUCGGAUCUGCACUUC	1.52
GUCCUGUGCUACACAUCGUAUGUACCGAAUCGGGGUGGGGAAAGGGGAAAAAAAGGGGAAAGUAUUAUGUUACGCCGUUCGGAUCUGCAC	0.834
AAGUCCUGUGCUACACAUCGUAUGUACCGAAUCGGGAAAAAGGGAAAGGGUUUGGGAAAGUAUUAUGUUACGCCGUUCGGAUCUGCACUU	1.36

Block 4 — target: tungstate, free oxyanion; technique: microfluidic competitive inhibition; matrix: in vitro, cell-free expressed; tested at: not given; reading: lower = stronger binding
Notes: derived from inhibition constants, unchanged parent 2230 nM
Parent: PafA, mature enzyme, eGFP fusion (Elizabethkingia meningoseptica, UniProt Q9KJX5); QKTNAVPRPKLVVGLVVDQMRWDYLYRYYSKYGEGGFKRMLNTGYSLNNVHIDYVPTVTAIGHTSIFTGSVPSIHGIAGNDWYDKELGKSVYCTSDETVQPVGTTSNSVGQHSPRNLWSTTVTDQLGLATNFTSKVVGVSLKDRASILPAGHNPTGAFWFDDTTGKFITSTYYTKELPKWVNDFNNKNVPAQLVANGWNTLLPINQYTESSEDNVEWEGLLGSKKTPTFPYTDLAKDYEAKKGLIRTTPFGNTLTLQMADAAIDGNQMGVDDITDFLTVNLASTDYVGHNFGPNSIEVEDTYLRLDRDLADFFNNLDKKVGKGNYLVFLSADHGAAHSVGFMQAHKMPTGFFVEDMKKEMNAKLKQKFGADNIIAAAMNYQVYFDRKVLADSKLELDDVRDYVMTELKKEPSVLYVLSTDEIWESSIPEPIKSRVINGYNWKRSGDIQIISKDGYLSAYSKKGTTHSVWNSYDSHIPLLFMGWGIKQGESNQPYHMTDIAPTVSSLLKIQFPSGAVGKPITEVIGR
Variant	oxyanion analog dissociation constant
A336V	1150 nM
V99G	2370 nM
V139G	1930 nM
V194A	2190 nM

A few entries again (block 1):
Sequence	enrichment fold change
SYRPMYQIVQPIKQY	3.55
WFPHQAHRADIISA	2.71
